# Measurements from different studies.
# Each line is one published result; not all experiments were run side by side. “And” joins repeats or separate records; there may be more than shown. Numbers after ± are the reported error.
# UniProt O75116, sequence (whole entry, looked up): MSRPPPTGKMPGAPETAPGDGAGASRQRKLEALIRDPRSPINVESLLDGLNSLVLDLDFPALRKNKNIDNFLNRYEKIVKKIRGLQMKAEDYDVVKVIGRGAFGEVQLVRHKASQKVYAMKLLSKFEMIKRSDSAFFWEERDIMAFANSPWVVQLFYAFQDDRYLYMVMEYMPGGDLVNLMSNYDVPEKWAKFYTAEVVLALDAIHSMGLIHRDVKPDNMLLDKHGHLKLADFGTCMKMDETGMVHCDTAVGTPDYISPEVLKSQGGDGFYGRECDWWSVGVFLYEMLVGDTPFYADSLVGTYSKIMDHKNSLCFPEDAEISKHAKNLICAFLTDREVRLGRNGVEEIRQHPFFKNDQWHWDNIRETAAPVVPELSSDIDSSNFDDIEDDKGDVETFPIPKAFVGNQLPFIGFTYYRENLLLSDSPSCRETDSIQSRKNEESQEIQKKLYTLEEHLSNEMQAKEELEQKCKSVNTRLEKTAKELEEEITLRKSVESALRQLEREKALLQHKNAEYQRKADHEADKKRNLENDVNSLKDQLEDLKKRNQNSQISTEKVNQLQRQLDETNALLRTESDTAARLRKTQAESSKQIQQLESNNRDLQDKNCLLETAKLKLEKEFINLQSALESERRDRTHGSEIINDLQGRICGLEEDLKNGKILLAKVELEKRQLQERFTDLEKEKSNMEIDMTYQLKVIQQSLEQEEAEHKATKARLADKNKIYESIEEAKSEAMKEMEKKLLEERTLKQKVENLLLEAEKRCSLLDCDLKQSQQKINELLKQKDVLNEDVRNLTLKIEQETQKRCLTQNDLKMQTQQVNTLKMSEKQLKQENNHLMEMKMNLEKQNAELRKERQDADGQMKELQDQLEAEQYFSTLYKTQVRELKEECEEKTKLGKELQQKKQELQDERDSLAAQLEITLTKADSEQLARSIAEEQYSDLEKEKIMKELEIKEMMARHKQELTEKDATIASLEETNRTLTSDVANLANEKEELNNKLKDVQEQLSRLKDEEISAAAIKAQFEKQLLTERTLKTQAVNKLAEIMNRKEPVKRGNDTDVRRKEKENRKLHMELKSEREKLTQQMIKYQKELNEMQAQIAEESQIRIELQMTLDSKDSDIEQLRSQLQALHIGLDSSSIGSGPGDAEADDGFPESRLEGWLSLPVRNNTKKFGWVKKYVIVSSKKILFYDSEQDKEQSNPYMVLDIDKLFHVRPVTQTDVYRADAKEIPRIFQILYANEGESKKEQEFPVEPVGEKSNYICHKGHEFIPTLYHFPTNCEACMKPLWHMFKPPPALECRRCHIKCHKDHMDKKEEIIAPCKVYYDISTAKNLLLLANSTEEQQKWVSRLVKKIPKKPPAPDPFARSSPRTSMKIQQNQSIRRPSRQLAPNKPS
Structure (SMILES),tested on,test,system,setting,scale,quantity,value
Cc1nn(-c2nc3c(F)cc(F)cc3s2)c(O)c1C(c1ccc(C(F)(F)F)cc1)c1c(C)nn(-c2nc3c(F)cc(F)cc3s2)c1O,RAW-ISG,CCK-8,,6.25 µM,,viability,109% and 101% and 105% and 112%
COc1ccc([C@H]2c3[nH]c4ccc(Cl)cc4c3CCN2C(=O)Oc2ccc(Cl)cc2)cc1,human dermal fibroblasts with PBMC,"cytokine secretion, refers to: sIL-6",,"0.1 µM, 48 h",,inhibition,96%
C[C@H]1CN(c2n[nH]c3nc(N[C@H]4CC[C@H](NS(=O)(=O)CCC(F)(F)F)CC4)ncc23)CCO1,"ROCK2 (Homo sapiens, UniProt O75116)","inhibitor, Kinobeads competition profiling",,0.8 µM,baseline: vehicle,relative abundance,0.99
CO[C@H]1/C=C\C=C(/C)C(=O)NC2=CC(=O)C(NCCN(C)C)=C(C[C@@H](C)C[C@H](OC)[C@H](O)[C@@H](C)/C=C(\C)[C@@H]1OC(N)=O)C2=O,iPSC-derived cardiomyocytes,initial hit retest,,"concentration not given, 24 h, plate-normalised",,MyBP-C protein level,32%
COc1c(C)c2c(c(O)c1C/C=C(\C)CCC(=O)O)C(=O)OC2,EJ-28,cell proliferation,bladder cancer,,,IC50,646 nM
CN1C(=O)C2(CCN(C(=O)c3ccc(/C=C4\Oc5c(C(N)=O)cccc5C4=O)s3)CC2)c2ccccc21,SUM149,"cellular PARylation, inhibitor, Western blot",,added: H2O2,,PARylation,inhibited
Cc1sc2c(c1C)C(c1ccc(Cl)cc1)=N[C@@H](CC(=O)OC(C)(C)C)c1nnc(C)n1-2,MM1.S,refers to: MYC,,"3 µM, 6 h",baseline: untreated,protein level decrease,~88%
CC(c1ccccc1)(c1ccc(O)cc1)c1ccc(O)cc1,HepG2 spheroids,Hoechst flow cytometry,,"10 µM, 96 h",,S phase cells,11 ± 0.61%
O=C(Nc1ccc2[nH]nc(-c3ccncc3)c2c1)[C@@H]1CCN(CC(=O)N2CCN(c3ccc(-c4ncccn4)cc3)CC2)C1,HCT116,IncuCyte,,"concentration not given, 24 (unit not given)",,PI-positive cells,6 count and 6.5 count and 7.5 count
Nc1ncc(-c2nc(N3CCOCC3)nc(N3CCOCC3)n2)c(C(F)F)n1,A-172,cell growth,,72 h,,GI50,355 nM
CC1=CC(=O)c2c(O)cccc2C1=O,HuCC-A1,MTT,,,baseline: IC50 MRC-5 over IC50 HuCC-A1,selectivity index,0.46
Nc1ncnc2c1ncn2[C@@H]1O[C@@H]2COP(=O)(O)O[C@H]3[C@@H](O)[C@H](n4cnc5c(=O)[nH]cnc54)O[C@@H]3COP(=O)(O)O[C@H]2[C@H]1O,HFF-1,"RNA sequencing, refers to: Reactome R-HSA-4420332",,downregulated pathway,baseline: Zika virus alone,pathway fold enrichment,14.2
CC[C@H](C)[C@@H]([C@@H](CC(=O)N1CCC[C@H]1[C@H](OC)[C@@H](C)C(=O)N[C@@H](Cc1ccccc1)C(=O)O)OC)N(C)C(=O)[C@@H](NC(=O)[C@H](C(C)C)N(C)C(=O)CCSSC[C@H](NC(=O)[C@@H](NC(=O)CNC(=O)[C@H](CCC(=O)O)NC(=O)[C@H](CC(=O)O)NC(=O)[C@H](C)NC(=O)[C@H](CC(=O)O)NC(=O)[C@@H](NC(=O)[C@H](CC(C)C)NC(=O)[C@H](CC(C)C)NC(=O)[C@H](C)NC(=O)[C@H](CC(C)C)NC(=O)[C@H](CC(=O)O)NC(=O)[C@H](CC(C)C)NC(=O)[C@H](CC(C)C)NC(=O)[C@H](CC(C)C)NC(=O)[C@H](CC(C)C)NC(=O)[C@@H]1CCCN1C(=O)[C@@H](NC(=O)[C@@H](NC(=O)[C@H](Cc1ccccc1)NC(=O)[C@H](CC(C)C)NC(=O)[C@H](Cc1c[nH]c2ccccc12)NC(=O)[C@H](C)NC(=O)[C@H](CC(=O)O)NC(=O)[C@H](Cc1ccc(O)cc1)NC(=O)[C@H](CCC(N)=O)NC(=O)[C@H](C)NC(=O)[C@H](Cc1c[nH]c2ccccc12)NC(=O)[C@H](Cc1ccc(O)cc1)NC(=O)[C@@H](NC(=O)[C@@H]1CCCN1C(=O)[C@H](CC(N)=O)NC(=O)[C@H](CCC(N)=O)NC(=O)[C@H](CCC(=O)O)NC(=O)[C@H](C)NC(=O)[C@H](C)N)[C@@H](C)CC)[C@@H](C)O)[C@@H](C)O)C(C)C)[C@@H](C)O)C(=O)NCC(N)=O)C(C)C,HeLa,"cell growth, MTT",,2 h,baseline: IC50 pH 7.4 over IC50 pH 5.0,selectivity ratio,16.4 fold
N#CC(=Cc1ccc(O)cc1)C(=O)O,human neutrophils,"sulfate/chloride exchange, competitive inhibitor",,,,Ki,~230000 nM
O=S(=O)(c1ccc(O)cc1)c1ccc(O)cc1,HepG2 spheroids,Hoechst flow cytometry,,"0.10 µM, 96 h",,G1 phase cells,77.4 ± 6.33%
CC(C)N1CCC(NC2CCN(c3cccc(-c4cc5cc(F)ccc5[nH]4)c3)CC2)CC1,IGROV-1,,,,,GI50,1850 nM
Oc1cc(Cl)ccc1Oc1ccc(Cl)cc1Cl,HepG2,"high content imaging, refers to: DNA structure",,"24 h, distribution mode 2",,point of departure,17 µM
CN(C)CC[C@@H](c1ccc(Cl)cc1)c1ccccn1,Plasmodium falciparum,,GB4,,,IC50,1000 nM
CCN(CC)c1ccc(C=NNC(=O)CSc2nc3ccccc3c(=O)n2Cc2ccc(S(N)(=O)=O)cc2)c(O)c1,SR,NCI five-dose screen,,,,CC50,> 100000 nM
CC1=C(O)C(=O)C=C2C1=CC=C1[C@@]2(C)CC[C@@]2(C)[C@@H]3C[C@](C)(C(=O)O)CC[C@]3(C)CC[C@]12C,iPSC-derived cardiomyocytes,concentration-response fit,,concentration not given,baseline: vehicle,fitted bottom MyBP-C level,0%
C/C=C(/C)C(=O)O[C@H]1C(C)=C2[C@H]([C@@H]1OC(=O)CCCCCCC)[C@@](C)(OC(C)=O)C[C@H](OC(=O)CCC)[C@@]1(O)[C@H]2OC(=O)[C@@]1(C)O,HEK-293T,"RNA-seq GSEA, refers to: Hallmark hypoxia",,"500 nM, 6 h",direction not given,normalized enrichment score,2.01
CN1CCN(C2(CNC3CCN(c4cccc(-c5cc6cc(F)ccc6[nH]5)c4)CC3)CCC2)CC1,SNB-75,,,,,GI50,1490 nM
COc1ccc2c(c1)[nH]c1c(C)nccc12,DU-145,"bisulfite pyrosequencing, refers to: RASSF1A promoter CpG site 1",,"10 µM, 16 h",,DNA methylation,43.9%
O=S(=O)(Nc1ccc(-c2nc3cc(NS(=O)(=O)c4ccc(Br)cc4)ccc3o2)cc1)c1ccc(Br)cc1,DLD-1 colorectal cancer,,,48 h,,EC50,16000 nM
C[C@@H]1O[C@@H](O[C@H]2C[C@@H](O)[C@]3(CO)[C@H]4[C@H](O)C[C@]5(C)[C@@H](C6=CC(=O)OC6)CC[C@]5(O)[C@@H]4CC[C@]3(O)C2)[C@H](O)[C@H](O)[C@H]1O,iPSC-derived cardiomyocytes,concentration-response fit,,concentration not given,baseline: vehicle,fitted bottom MyBP-C level,21.3%
C[C@]12CC[C@H](O)C[C@H]1CC[C@@H]1[C@@H]2CC[C@]2(C)[C@@H](c3ccc(=O)oc3)CC[C@]12O,MCF7,annexin V flow cytometry,,"50 nM, 48 h",,apoptotic cells,29.4% and 33.2% and 24.5%
COc1c(CCC[P+](c2ccccc2)(c2ccccc2)c2ccccc2)cc2c(c1OC)OCO2.[I-],SK-OV-3,SRB,,,,GI50,-5.59 log M
CCC(=O)N(CCC#N)c1ccc2c(c1)OCCN2CC(=O)NCC(=O)Nc1ccc(C(=O)NCCCCCCC(=O)NO)cc1.O=C(O)C(F)(F)F,MM1.S,PI flow cytometry,,"10 µM, 48 h",,cell cycle distribution,no effect
O=C1NC(=O)N(CCc2ccc(F)cc2)C(=O)/C1=C/C=C/c1ccccc1,C127 LDR GFP reporter cells,"silenced GFP reporter induction, activator, high-content imaging",,"retest, two-run mean",,efficacy,49%
C=C1C(=O)O[C@H]2C[C@@]3(C)O[C@@H]3CC/C(C)=C/[C@@H](OC(C)=O)[C@H]12,iPSC-derived cardiomyocytes,"concentration-response curve, refers to: MyBP-C protein level",,,,EC50,52400 nM
CCc1cccc(N(C)C(=N)Nc2cccc3ccccc23)c1,Plasmodium falciparum,,HB3,,,IC50,10000 nM
Oc1ccc(C2(c3ccc(O)cc3)c3ccccc3-c3ccccc32)cc1,HepG2 spheroids,Hoechst flow cytometry,,"10 µM, 96 h",,S phase cells,13.3 ± 2.64%
Cn1cc2cc(C(F)(F)c3nnc4ccc(-c5cnn(C6CC6)c5)nn34)c(F)cc2n1,MKN-45,PI flow cytometry,,"20 nM, 24 h",,cells in G1 phase,66.8% and 60.1% and 64.2%
Cn1nccc1Nc1nccc(-c2ccn([C@H](CO)c3ccc(Cl)c(F)c3)c(=O)c2)n1,HCT116,IncuCyte,,"concentration not given, 44 (unit not given)",,PI-positive cells,16.5 count and 11.9 count and 18.7 count
CC[C@H](C)[C@H](NC(=O)[C@H](CCC(=O)O)NC(=O)[C@H](CCCNC(=N)N)NC(=O)[C@H](CCCNC(=N)N)NC(=O)[C@H](CCCNC(=N)N)NC(=O)[C@H](CCC(N)=O)NC(=O)[C@H](CCCNC(=N)N)NC(=O)[C@H](CCCNC(=N)N)NC(=O)[C@H](CCCCN)NC(=O)[C@H](CCCCN)NC(=O)[C@H](CCCNC(=N)N)NC(=O)CNC(=O)[C@H](Cc1ccc(O)cc1)NC(C)=O)C(=O)N[C@@H](CC(=O)O)C(=O)N[C@@H](Cc1c[nH]cn1)C(=O)N[C@@H](CC(=O)O)C(N)=O,BV-2,immunoblot,,"70 µM, added: high glucose",,RAGE protein level,no effect
N.N.[Cl][Pt][Cl],NCI-H82,PI flow cytometry,,"10 µM, 24 h",,cells in G2 phase,5%
O=C1N(Cc2ccccc2Cl)c2ccccc2C12NN=C(c1ccccc1)S2 (centres unmarked),MDA-MB-468,"gene expression array, refers to: KCTD3 mRNA",,"10 µM, 12 h","baseline: untreated, down",fold change,1.51
COc1cc(CCC[P+](c2ccccc2)(c2ccccc2)c2ccccc2)c(OC)c2c1OCO2.[I-],SNB-75,SRB,,,,TGI,-5.34 log M

# Excerpt of the above:
Structure (SMILES),tested on,test,system,setting,scale,quantity,value
O=C1N(Cc2ccccc2Cl)c2ccccc2C12NN=C(c1ccccc1)S2 (centres unmarked),MDA-MB-468,"gene expression array, refers to: KCTD3 mRNA",,"10 µM, 12 h","baseline: untreated, down",fold change,1.51
C[C@H]1CN(c2n[nH]c3nc(N[C@H]4CC[C@H](NS(=O)(=O)CCC(F)(F)F)CC4)ncc23)CCO1,"ROCK2 (Homo sapiens, UniProt O75116)","inhibitor, Kinobeads competition profiling",,0.8 µM,baseline: vehicle,relative abundance,0.99
CCC(=O)N(CCC#N)c1ccc2c(c1)OCCN2CC(=O)NCC(=O)Nc1ccc(C(=O)NCCCCCCC(=O)NO)cc1.O=C(O)C(F)(F)F,MM1.S,PI flow cytometry,,"10 µM, 48 h",,cell cycle distribution,no effect
C=C1C(=O)O[C@H]2C[C@@]3(C)O[C@@H]3CC/C(C)=C/[C@@H](OC(C)=O)[C@H]12,iPSC-derived cardiomyocytes,"concentration-response curve, refers to: MyBP-C protein level",,,,EC50,52400 nM
